Results of several laboratories.
Numbered parts are unrelated; each lists some results of a single study.
Chain of UniProt Q9Y616 (whole entry, looked up): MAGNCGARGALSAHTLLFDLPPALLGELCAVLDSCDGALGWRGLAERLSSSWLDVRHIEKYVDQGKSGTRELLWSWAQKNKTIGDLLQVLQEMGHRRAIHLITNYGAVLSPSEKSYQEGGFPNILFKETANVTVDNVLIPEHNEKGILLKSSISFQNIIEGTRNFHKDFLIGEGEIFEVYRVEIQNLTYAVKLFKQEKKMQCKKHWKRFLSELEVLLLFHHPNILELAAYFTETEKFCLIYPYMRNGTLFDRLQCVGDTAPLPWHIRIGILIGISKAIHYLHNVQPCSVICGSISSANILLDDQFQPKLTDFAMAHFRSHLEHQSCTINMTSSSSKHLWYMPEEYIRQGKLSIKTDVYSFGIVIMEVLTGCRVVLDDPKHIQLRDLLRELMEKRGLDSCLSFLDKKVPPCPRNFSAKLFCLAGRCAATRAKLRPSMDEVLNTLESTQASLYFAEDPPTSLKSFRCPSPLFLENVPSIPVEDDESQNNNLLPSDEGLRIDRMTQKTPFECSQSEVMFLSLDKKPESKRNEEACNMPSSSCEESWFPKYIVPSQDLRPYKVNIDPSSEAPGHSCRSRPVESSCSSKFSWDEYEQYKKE
Chain of UniProt Q9UHD2 (whole entry, looked up): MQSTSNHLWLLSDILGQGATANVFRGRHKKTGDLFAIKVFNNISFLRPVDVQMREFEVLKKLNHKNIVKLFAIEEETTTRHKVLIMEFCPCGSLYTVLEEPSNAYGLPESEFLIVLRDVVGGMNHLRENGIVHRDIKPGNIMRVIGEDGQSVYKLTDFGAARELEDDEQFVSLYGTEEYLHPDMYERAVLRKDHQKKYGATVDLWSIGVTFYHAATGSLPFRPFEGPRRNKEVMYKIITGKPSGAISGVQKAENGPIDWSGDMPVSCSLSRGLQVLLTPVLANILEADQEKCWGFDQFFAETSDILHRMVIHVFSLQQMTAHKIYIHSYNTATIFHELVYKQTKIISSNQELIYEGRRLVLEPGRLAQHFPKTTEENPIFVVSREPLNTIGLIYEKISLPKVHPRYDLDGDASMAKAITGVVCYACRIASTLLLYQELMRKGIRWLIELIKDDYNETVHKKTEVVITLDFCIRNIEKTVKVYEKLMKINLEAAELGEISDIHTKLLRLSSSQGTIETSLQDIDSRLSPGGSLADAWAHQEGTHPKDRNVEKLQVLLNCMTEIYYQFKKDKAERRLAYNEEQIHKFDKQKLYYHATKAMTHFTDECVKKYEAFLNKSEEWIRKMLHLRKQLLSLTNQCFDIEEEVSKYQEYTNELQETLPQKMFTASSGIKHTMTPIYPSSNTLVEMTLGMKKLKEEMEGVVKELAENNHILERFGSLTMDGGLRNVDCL
Chain of UniProt Q8TDX7 (whole entry, looked up): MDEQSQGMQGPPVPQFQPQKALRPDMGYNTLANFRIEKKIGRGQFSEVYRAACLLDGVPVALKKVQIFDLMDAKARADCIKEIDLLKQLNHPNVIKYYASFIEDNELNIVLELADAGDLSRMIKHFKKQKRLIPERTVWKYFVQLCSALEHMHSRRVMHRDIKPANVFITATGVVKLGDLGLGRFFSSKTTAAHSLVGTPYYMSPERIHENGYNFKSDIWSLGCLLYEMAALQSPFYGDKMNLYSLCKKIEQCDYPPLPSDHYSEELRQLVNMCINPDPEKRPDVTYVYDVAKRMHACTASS
Chain of UniProt P27361 (whole entry, looked up): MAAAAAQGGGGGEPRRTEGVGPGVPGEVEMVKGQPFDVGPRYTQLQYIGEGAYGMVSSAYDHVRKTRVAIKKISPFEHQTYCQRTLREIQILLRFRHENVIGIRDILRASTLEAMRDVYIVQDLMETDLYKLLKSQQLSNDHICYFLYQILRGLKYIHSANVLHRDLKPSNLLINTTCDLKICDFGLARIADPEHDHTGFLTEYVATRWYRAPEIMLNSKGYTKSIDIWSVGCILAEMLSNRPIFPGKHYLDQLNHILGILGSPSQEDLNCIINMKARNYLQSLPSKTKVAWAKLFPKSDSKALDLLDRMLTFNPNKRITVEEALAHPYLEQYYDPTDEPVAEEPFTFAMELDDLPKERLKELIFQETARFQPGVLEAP
Chain of UniProt Q96PY6 (whole entry, looked up): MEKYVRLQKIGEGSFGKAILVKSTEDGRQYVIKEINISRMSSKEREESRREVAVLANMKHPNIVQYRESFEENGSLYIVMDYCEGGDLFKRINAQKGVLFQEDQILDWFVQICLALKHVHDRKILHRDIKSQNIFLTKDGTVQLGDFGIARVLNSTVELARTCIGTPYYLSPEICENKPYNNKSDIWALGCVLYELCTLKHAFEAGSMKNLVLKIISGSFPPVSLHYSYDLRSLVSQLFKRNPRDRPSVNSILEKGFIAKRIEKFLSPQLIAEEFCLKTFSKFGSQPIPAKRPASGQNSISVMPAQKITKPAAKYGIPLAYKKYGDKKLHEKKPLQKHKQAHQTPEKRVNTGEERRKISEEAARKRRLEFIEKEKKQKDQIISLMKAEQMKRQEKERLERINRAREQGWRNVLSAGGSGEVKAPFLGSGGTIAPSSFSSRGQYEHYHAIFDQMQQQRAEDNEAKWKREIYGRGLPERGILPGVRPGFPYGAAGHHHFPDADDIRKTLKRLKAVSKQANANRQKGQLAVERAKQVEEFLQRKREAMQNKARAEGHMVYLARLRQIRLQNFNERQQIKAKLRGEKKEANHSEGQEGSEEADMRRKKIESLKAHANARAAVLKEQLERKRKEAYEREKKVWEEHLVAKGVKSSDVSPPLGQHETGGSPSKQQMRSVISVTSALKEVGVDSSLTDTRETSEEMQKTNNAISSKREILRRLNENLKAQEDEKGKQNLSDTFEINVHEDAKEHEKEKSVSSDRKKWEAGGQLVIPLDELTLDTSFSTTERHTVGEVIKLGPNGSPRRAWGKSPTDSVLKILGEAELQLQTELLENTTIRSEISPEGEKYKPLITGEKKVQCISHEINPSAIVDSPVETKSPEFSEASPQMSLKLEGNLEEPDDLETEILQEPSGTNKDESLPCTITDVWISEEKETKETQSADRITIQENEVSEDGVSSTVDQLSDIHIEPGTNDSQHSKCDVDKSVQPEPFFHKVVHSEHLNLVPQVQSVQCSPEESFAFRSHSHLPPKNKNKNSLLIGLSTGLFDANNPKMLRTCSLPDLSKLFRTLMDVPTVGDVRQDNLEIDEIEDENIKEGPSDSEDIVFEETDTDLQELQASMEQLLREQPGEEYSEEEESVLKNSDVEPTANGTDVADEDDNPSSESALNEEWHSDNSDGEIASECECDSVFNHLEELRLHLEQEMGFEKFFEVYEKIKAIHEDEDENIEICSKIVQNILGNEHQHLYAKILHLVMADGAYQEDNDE
Chain of UniProt Q14012 (whole entry, looked up): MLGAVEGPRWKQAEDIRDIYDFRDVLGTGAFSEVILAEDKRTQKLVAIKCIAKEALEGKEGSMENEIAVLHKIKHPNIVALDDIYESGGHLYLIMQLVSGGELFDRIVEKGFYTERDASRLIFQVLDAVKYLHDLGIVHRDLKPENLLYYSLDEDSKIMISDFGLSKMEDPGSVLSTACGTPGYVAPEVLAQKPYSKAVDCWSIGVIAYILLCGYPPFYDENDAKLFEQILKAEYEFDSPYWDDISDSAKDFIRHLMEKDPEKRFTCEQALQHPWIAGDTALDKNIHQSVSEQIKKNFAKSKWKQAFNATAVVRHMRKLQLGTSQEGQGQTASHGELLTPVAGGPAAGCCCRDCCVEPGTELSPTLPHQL
Chain of UniProt P52564 (whole entry, looked up): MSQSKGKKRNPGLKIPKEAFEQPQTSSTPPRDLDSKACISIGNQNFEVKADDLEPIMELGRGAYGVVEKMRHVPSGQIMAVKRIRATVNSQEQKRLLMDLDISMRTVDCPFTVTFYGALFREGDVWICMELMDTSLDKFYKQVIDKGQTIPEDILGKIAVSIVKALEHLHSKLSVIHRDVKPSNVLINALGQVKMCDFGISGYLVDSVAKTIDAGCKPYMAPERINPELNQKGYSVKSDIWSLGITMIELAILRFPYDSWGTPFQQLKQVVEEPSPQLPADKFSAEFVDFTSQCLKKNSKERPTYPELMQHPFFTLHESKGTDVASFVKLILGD
Chain of UniProt P36896 (whole entry, looked up): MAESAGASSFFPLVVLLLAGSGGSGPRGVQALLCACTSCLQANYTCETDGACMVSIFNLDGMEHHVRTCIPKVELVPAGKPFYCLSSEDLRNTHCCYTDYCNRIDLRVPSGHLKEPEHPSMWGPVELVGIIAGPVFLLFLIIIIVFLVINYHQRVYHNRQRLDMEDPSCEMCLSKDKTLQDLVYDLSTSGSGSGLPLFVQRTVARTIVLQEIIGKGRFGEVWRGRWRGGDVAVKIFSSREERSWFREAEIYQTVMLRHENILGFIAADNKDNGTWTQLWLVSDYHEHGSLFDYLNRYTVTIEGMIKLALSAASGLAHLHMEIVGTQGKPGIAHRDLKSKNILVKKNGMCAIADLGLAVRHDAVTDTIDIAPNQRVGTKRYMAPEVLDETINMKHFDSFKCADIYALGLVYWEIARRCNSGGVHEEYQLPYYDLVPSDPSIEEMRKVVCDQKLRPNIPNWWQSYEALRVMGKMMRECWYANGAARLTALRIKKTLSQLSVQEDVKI

Study 1 — technique: protein-binding microarray; molecule type: double-stranded DNA, one strand shown; sample: in vitro; concentration: 0.8 µM; setting: whole 60-bp probe, no competitor; reading: higher = stronger binding; shared flanks, not repeated: … GTCTTGATTCGCTTGACGCTGCTG
Target: Centromere-binding protein 1, full length, N-terminal tag (CBF1, Saccharomyces cerevisiae, UniProt P17106, residues 1-351)
Chain of UniProt P17106 (whole entry, looked up): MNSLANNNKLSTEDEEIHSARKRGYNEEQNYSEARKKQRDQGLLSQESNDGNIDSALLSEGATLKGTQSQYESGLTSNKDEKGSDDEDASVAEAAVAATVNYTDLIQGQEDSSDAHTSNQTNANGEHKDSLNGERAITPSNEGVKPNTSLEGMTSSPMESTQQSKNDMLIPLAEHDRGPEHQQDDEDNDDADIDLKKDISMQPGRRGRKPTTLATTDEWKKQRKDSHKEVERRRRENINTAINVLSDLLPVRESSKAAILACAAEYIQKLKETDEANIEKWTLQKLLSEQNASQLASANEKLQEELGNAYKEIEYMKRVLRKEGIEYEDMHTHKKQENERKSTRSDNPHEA
Oligonucleotide | fluorescence intensity [a.u.]
CTAATGACTCCACGTCACATGAAACCACACCGTTTC | 1160
CCTAACTACTATAGCTACCACATATAGCTTCGTACA | 522
GAACCAGAGCCAACCCAGGTGAGACTGGATGCTTAG | 488
CCTAACTACTATAAACTGATGTTATAGCTTCGTACA | 527
GAACTTGTCCTTGTCCACGTTCAATACAACAGTTAG | 596
GAAATTCCTCGCCATCACCATGCGCTGTTTTTATAG | 517
GAATACAGGCTAAGTGGTGTCACTATCCCCATTTAG | 522
GAACGCGATCAGCCGCACATGGGCATTATCATTTAG | 656

Study 2 — technique: protein-binding microarray; molecule type: hairpin DNA; sample: in vitro; concentration: not given; reference: not given; reading: higher = stronger binding
Target: Runt-related transcription factor 1, full length (RUNX1, Homo sapiens, UniProt Q01196-8, residues 1-480)
Setting: whole hairpin DNA, median over replicate spots
Oligonucleotide | median fluorescence
GAGGCCCAACGGCAACAGCCTCCTGGCTGTTGCCGTTGGGCCTCACACTC (5mC at 34) | 1690 a.u.
GAGGCCTGTTCTGGTTGGCCTCCTGGCCAACCAGAACAGGCCTCACACTC | 1750 a.u.
GAGGCCTGTTGCGGTTGGCCTCCTGGCCAACCGCAACAGGCCTCACACTC (5mC at 31) | 1720 a.u.
GAGGCCTGTCGCGGTTAGCCTCCTGGCTAACCGCGACAGGCCTCACACTC | 4090 a.u.
GAGGCCTGCGGTGGTTGGCCTCCTGGCCAACCACCGCAGGCCTCACACTC (5mC at 9) | 2410 a.u.
GAGGCCTGTTGTGGCTGGCCTCCTGGCCAGCCACAACAGGCCTCACACTC (5mC at 15) | 1960 a.u.
GAGGCCCTACCGCAACAGCCTCCTGGCTGTTGCGGTAGGGCCTCACACTC | 2750 a.u.
GAGGCCTGTTGTCGTTGGCCTCCTGGCCAACGACAACAGGCCTCACACTC (5mC at 31) | 1640 a.u.

Study 3 — technique: competition with immobilised ligand; concentration: 1 µM
SMILES: CNC(=O)Nc1ccc2c(c1)[C@@]1(CC2)OC(=O)N(CC(=O)N(Cc2ccc(F)cc2)[C@@H](C)C(F)(F)F)C1=O
target | effect on | remaining binding [%]
Serine/threonine-protein kinase TNNI3K (TNNI3K, Homo sapiens, UniProt Q59H18) | cell-free assay | 98
Interleukin-1 receptor-associated kinase 3 (IRAK3, Homo sapiens, UniProt Q9Y616) | cell-free assay | 100
Dual specificity protein kinase CLK2 (CLK2, Homo sapiens, UniProt P49760) | cell-free assay | 100
Inhibitor of nuclear factor kappa-B kinase subunit epsilon (IKBKE, Homo sapiens, UniProt Q14164) | cell-free assay | 75
Calcium/calmodulin-dependent protein kinase type 1 (CAMK1, Homo sapiens, UniProt Q14012) | cell-free assay | 100
Insulin receptor-related protein (INSRR, Homo sapiens, UniProt P14616) | cell-free assay | 100
MAP kinase-activated protein kinase 5 (MAPKAPK5, Homo sapiens, UniProt Q8IW41) | cell-free assay | 86
cGMP-dependent protein kinase 2 (PRKG2, Homo sapiens, UniProt Q13237) | cell-free assay | 85
Cyclin-dependent kinase 2 (CDK2, Homo sapiens, UniProt P24941) | cell-free assay | 100
Serine/threonine-protein kinase PAK 1 (PAK1, Homo sapiens, UniProt Q13153) | cell-free assay | 98
Cyclin-dependent kinase 15 (CDK15, Homo sapiens, UniProt Q96Q40) | cell-free assay | 100
Aurora kinase B (AURKB, Homo sapiens, UniProt Q96GD4) | cell-free assay | 93
Rho-associated protein kinase 2 (ROCK2, Homo sapiens, UniProt O75116) | cell-free assay | 95
Serine/threonine-protein kinase Nek4 (NEK4, Homo sapiens, UniProt P51957) | cell-free assay | 100
Aurora kinase A (AURKA, Homo sapiens, UniProt O14965) | cell-free assay | 79
Ribosomal protein S6 kinase alpha-3, C-terminal kinase domain (RPS6KA3, Homo sapiens, UniProt P51812) | cell-free assay | 84
Serine/threonine-protein kinase N2 (PKN2, Homo sapiens, UniProt Q16513) | cell-free assay | 100
Dual specificity mitogen-activated protein kinase kinase 6 (MAP2K6, Homo sapiens, UniProt P52564) | cell-free assay | 100
Receptor-interacting serine/threonine-protein kinase 4 (RIPK4, Homo sapiens, UniProt P57078) | cell-free assay | 52
Serine/threonine-protein kinase Nek7 (NEK7, Homo sapiens, UniProt Q8TDX7) | cell-free assay | 100
Serine/threonine-protein kinase RIO3 (RIOK3, Homo sapiens, UniProt O14730) | cell-free assay | 100
Myosin-IIIa (MYO3A, Homo sapiens, UniProt Q8NEV4) | binding | 100

Study 4 — SMILES: c1ccc2c(-c3ccncc3)c[nH]c2c1; effect on: enzyme activity; mode: inhibitor; concentration: 0.5 µM; reference: control
target | remaining activity [%]
Activin receptor type-1B (ACVR1B, Homo sapiens, UniProt P36896) | 98.8
Dual specificity mitogen-activated protein kinase kinase 2 (MAP2K2, Homo sapiens, UniProt P36507) | 103
Ribosomal protein S6 kinase alpha-2 (RPS6KA2, Homo sapiens, UniProt Q15349) | 89
Serine/threonine-protein kinase A-Raf (ARAF, Homo sapiens, UniProt P10398) | 97.7
Ephrin type-A receptor 3 (EPHA3, Homo sapiens, UniProt P29320) | 107
Serine/threonine-protein kinase TBK1 (TBK1, Homo sapiens, UniProt Q9UHD2) | 93.4
Fibroblast growth factor receptor 3 (FGFR3, Homo sapiens, UniProt P22607) | 98.9
Serine/threonine-protein kinase ULK2 (ULK2, Homo sapiens, UniProt Q8IYT8) | 106
Mitogen-activated protein kinase 3 (MAPK3, Homo sapiens, UniProt P27361) | 98.9
Serine/threonine-protein kinase Nek1 (NEK1, Homo sapiens, UniProt Q96PY6) | 101
Fibroblast growth factor receptor 1 (FGFR1, Homo sapiens, UniProt P11362) | 92.7
Macrophage-stimulating protein receptor (MST1R, Homo sapiens, UniProt Q04912) | 98.9
Rhodopsin kinase GRK7 (GRK7, Homo sapiens, UniProt Q8WTQ7) | 98.4
Glycogen synthase kinase-3 beta (GSK3B, Homo sapiens, UniProt P49841) | 104

A few entries again (study 3):
target | effect on | remaining binding [%]
Calcium/calmodulin-dependent protein kinase type 1 (CAMK1, Homo sapiens, UniProt Q14012) | cell-free assay | 100
Insulin receptor-related protein (INSRR, Homo sapiens, UniProt P14616) | cell-free assay | 100
MAP kinase-activated protein kinase 5 (MAPKAPK5, Homo sapiens, UniProt Q8IW41) | cell-free assay | 86
cGMP-dependent protein kinase 2 (PRKG2, Homo sapiens, UniProt Q13237) | cell-free assay | 85
Cyclin-dependent kinase 2 (CDK2, Homo sapiens, UniProt P24941) | cell-free assay | 100
Serine/threonine-protein kinase PAK 1 (PAK1, Homo sapiens, UniProt Q13153) | cell-free assay | 98
Cyclin-dependent kinase 15 (CDK15, Homo sapiens, UniProt Q96Q40) | cell-free assay | 100
Aurora kinase B (AURKB, Homo sapiens, UniProt Q96GD4) | cell-free assay | 93
